# Measurements pooled from the literature.
# Each numbered part is a random draw from the data of one study; scales do not carry over between parts.

# Sample 1
# Target: Replicase polyprotein 1ab, main protease (rep, Severe acute respiratory syndrome coronavirus 2, UniProt P0DTD1)
# Effect on: enzyme activity
# Action: inhibitor
# Concentration: 20 µM
# Notes: hit confirmation, with DTT
Compound,inhibition
N[C@@H](C(=O)N[C@@H]1C(=O)N2C(C(=O)O)=C(Cl)CS[C@H]12)c1ccccc1,-4.2%
COc1ccc2[n-]c([S@@+]([O-])Cc3ncc(C)c(OC)c3C)nc2c1.COc1ccc2[n-]c([S@@+]([O-])Cc3ncc(C)c(OC)c3C)nc2c1.O.O.O.[Mg+2],-6.8%
COc1cc(C[C@@H]2NCCc3cc(O)c(O)cc32)cc(OC)c1OC,-5.6%

# Sample 2
# Target: Interferon regulatory factor 5, full length, phosphomimetic (IRF5, Homo sapiens, UniProt Q13568-2, residues 1-514, S451D/S453D/S456D/S462D)
# Technique: protein-binding microarray
# Molecule type: double-stranded DNA, one strand shown
# Medium: in vitro
# Concentration: 940 nM top
# Notes: 60-bp whole probe
# Added: salmon DNA 0.4 mg/ml
# Relative to: random background probes
# Direction: higher = stronger binding
# Constant ends, left off below: GCCTAGCAC … GTCTTGATTCGCTTGACGCTGCTG
Strand,fitted relative affinity [z-score]
TTAGGTATCGACACTGGGTTAGTGCTA,4.7
GACGAATTCGGGTTTCGAGACGTGCTA,2.1
CTCTGGTTCTTGCTTGGTGTCGTGCTA,-0.144
GACGGTATCCTTATCGTGACGTGCTAG,-0.052
TCAGATTTCAGTTCCGATTAGTGCTAG,2.22
GCCGGTATCGGTCTCGGGACGTGCTAG,9.99
TTAGTTCTCCTTCTCCTTTAGTGCTAG,1.5
TTAGGTTTCGGACTAGGTTAGTGCTAG,7.86

# Sample 3
# Cell line: HEK-293T-ACE2
# Concentration: concentration not given
# Relative to: vehicle
Compound,cell number [%]
[I-].[K+],102
CC(C)OC(=O)[C@H](C)N[P@](=O)(OC[C@H]1O[C@@H](n2ccc(=O)[nH]c2=O)[C@](C)(F)[C@@H]1O)Oc1ccccc1,98.3
Cc1ccc(-n2nccn2)c(C(=O)N2CCN(c3nc4cc(Cl)ccc4o3)CC[C@H]2C)c1,96.5
C[C@@H]1CCO[C@H]2Cn3cc(C(=O)NCc4ccc(F)cc4F)c(=O)c([O-])c3C(=O)N12.[Na+],105
NCCC(O)(P(=O)([O-])O)P(=O)([O-])O.[Na+].[Na+],103

# Sample 4
# Target: Protein max, full length (MAX, Homo sapiens, UniProt P61244-2, residues 1-151)
# Technique: protein-binding microarray
# Molecule type: double-stranded DNA, one strand shown
# Medium: in vitro
# Concentration: not given
# Notes: k-mer, scored over probes, only values ≥0.25
# Direction: higher = stronger binding
Strand,E-score
CCTCCCCA,0.364
GCATGAGA,0.301
ACCGTGCG,0.259
CACGATGC,0.359
CATGTCCA,0.263

# Sample 5
# Target: Replicase polyprotein 1ab, nsp13 helicase (rep, Severe acute respiratory syndrome coronavirus 2, UniProt P0DTD1)
# Action: inhibitor
# Concentration: 20 µM
Compound,inhibition
COc1cc2nc(N3CCN(C(=O)COc4c(OC)cccc4C(C)C)CC3)nc(N)c2cc1OC,6.79%
c1cc2c(c(N3CCNCC3)c1)OCCO2,3.11%
NCC(=O)N[C@@H](CCC(N)=O)C(=O)O,6.05%
CC1(C)[C@@H](O)CC[C@]2(C)[C@H]3C(=O)C=C4[C@@H]5C[C@@](C)(C(=O)O)CC[C@]5(C)CC[C@@]4(C)[C@]3(C)CC[C@@H]12,-1.32%
Cc1ccc2cc(-c3c(C)ccc(C(=O)c4c(-c5ccccc5)n(C)n(-c5ccccc5)c4=O)c3N)ccc2n1,-4.71%
Cc1nnsc1C(=O)Nc1ccc(-n2nc(C(F)(F)F)cc2C(F)(F)F)cc1,3.51%
C#CCN1C(C)=C(C(=O)OC)C(c2cccc([N+](=O)[O-])c2)C(C(=O)OCC)=C1C (stereo not drawn),-0.47%
O=C(O)CCCCCCCC(=O)O,-1.54%
C=C(C)[C@H]1CN[C@H](C(=O)O)[C@H]1CC(=O)O,0.72%
CN(C(=O)/C=C/c1ccoc1)[C@@H]1CC[C@@]2(O)[C@H]3Cc4ccc(O)c5c4[C@@]2(CCN3CC2CC2)[C@H]1O5,2.87%
CCc1nc(N)nc(N)c1-c1ccc(Cl)cc1,0.13%
COC(=O)Nc1nc2cc(Sc3ccccc3)ccc2[nH]1,-4.7%
O=S(=O)(NC1CCNCC1)c1cc(S(=O)(=O)c2ccccc2)ccc1C(F)(F)F,9.92%
O=S(=O)(O)c1ccc2[nH]c(-c3ccccc3)nc2c1,0.64%
O=C(O)[C@H](O)[C@@H](O)[C@H](O)[C@H](O)CO,0.75%
Nc1ncnc2c1c(-c1ccc(Cl)cc1)nn2-c1cccc(-c2cnnn2Cc2cccc(-c3ccccc3)c2)c1,8.37%
C[C@@H](Oc1ccc(Cl)cc1)c1ccnc2ncnn12,5.02%
Oc1cccc(-c2nc(N3CCOCC3)c3oc4ncccc4c3n2)c1,-3.49%
COc1ccc(Cl)cc1C(=O)NCCc1ccc(S(=O)(=O)NC(=O)NC2CCCCC2)cc1,6.67%
COc1ccc(C2CNC(=O)NC2)cc1O[C@H]1C[C@@H]2CC[C@H]1C2,-4.62%
COc1cc(OC)c(C(=O)CCCCN2CCC3(CC2)NC(=O)NC3=O)cc1NS(=O)(=O)c1ccc(C(F)(F)F)cc1,0.19%
Cc1ccc(NC(=O)Nc2cc(C(F)(F)F)ccc2F)cc1Nc1ccc2c(c1)NC(=O)/C2=C\c1ccc[nH]1,-0.91%
CCCCCCCCCC(=O)OC1(c2ccc(Cl)cc2)CCN(CCCC(=O)c2ccc(F)cc2)CC1,3.13%
Cc1onc(-c2c(Cl)cccc2Cl)c1C(=O)N[C@@H]1C(=O)N2[C@@H]1SC(C)(C)[C@@H]2C(=O)O,5.91%
CC/C(=C(\c1ccc(O)cc1)c1ccc(OCCN(C)C)cc1)c1ccccc1,11%

# Sample 6
# Target: Ras GTPase-activating protein-binding protein 1, full length (G3BP1, Homo sapiens, UniProt Q13283)
# Chain of UniProt Q13283 (whole entry, looked up): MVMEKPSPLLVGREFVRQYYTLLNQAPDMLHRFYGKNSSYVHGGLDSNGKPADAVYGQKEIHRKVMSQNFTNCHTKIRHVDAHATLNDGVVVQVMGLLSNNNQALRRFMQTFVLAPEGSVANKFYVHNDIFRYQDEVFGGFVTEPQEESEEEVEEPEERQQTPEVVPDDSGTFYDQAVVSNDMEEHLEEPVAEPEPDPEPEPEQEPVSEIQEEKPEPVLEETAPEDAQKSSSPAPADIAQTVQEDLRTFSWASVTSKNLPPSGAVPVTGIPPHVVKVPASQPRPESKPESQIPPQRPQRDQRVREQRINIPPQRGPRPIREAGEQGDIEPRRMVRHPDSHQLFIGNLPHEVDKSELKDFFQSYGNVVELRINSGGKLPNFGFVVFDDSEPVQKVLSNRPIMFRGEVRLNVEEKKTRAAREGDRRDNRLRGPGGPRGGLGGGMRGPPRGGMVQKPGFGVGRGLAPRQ
# Technique: RNA Bind-n-Seq
# Molecule type: RNA
# Medium: in vitro
# Concentration: 200 nM
# Notes: whole 134-nt RNA, ends assumed
# Added: 150 mM KCl
# Relative to: input library
# Direction: higher = stronger binding
# Constant ends, left off below: GGGAGUUCUACAGUCCGACGAUC … UGGAAUUCUCGGGUGUCAAGG
Strand,log2 enrichment
CUGUGCUACACAUCGUAUGUACCGAAUCAAACCCCCCCAAACCCCCCCAAAUUUUUUUAAAAAAGUAUUAUGUUACGCCGUUCGGAUCUG,0.707
CUCAAGUCCUGUGCUACACAUCGUAUGUACCGAAUCGGAAAAAAAGGUGGUGGAAAGUAUUAUGUUACGCCGUUCGGAUCUGCACUUCCA,-0.365
GCAGGAAGUAAAAACAAAUGGAAAUGCUUCGGAUAGUGGCAGGGGUGGGGGUUGCUAAGGGAAGGGUGGGAUGGGAGUGGGUAAAGAGUU,1.06
AGUCCUGUGCUACACAUCGUAUGUACCGAAUCGGGAAAAAGGGUUUUUUUGGGAGGGAAAGUAUUAUGUUACGCCGUUCGGAUCUGCACU,0.0271
UGUUUAUCCAACAUAUGAUUUUGCCUGCCCCAUAGUUGACAGCAUCGAAGGUGUUACACAUGCCCUGAGAACAACAGAAUACCAUGACAG,0.402
UUGCAUUUCGAACGCGUUCUAAGAUGCCCCUGAAAGAUGUUCCCCUGGGCCAAUUAGAGGCAGAGCUCCAAGCUCCAGACAUCACUCCAG,0.634
UGGCCCCGGUGGCAUGCGGGGAGGAAGAGGUGGCCUCAUGGAUCGUGGUGGUCCCGGUGGAAUGUUCAGAGGUGGCCGUGGUGGAGACAG,0.00746
CCUGUGCUACACAUCGUAUGUACCGAAUCGGGGUUUUUUGGGGUUUUUUGGGGUUUUUUGGAAAGUAUUAUGUUACGCCGUUCGGAUCUG,-0.242

# For quick reference, copied from above (sample 5):
Compound,inhibition
NCC(=O)N[C@@H](CCC(N)=O)C(=O)O,6.05%
C=C(C)[C@H]1CN[C@H](C(=O)O)[C@H]1CC(=O)O,0.72%
O=S(=O)(NC1CCNCC1)c1cc(S(=O)(=O)c2ccccc2)ccc1C(F)(F)F,9.92%
Nc1ncnc2c1c(-c1ccc(Cl)cc1)nn2-c1cccc(-c2cnnn2Cc2cccc(-c3ccccc3)c2)c1,8.37%
CCCCCCCCCC(=O)OC1(c2ccc(Cl)cc2)CCN(CCCC(=O)c2ccc(F)cc2)CC1,3.13%
